Measured values gathered from unrelated publications.
Numbered parts are unrelated; each lists some results of a single study.

Study 1
Target: Histone acetyltransferase KAT6A, both winged helices, GST fusion (KAT6A, Homo sapiens, UniProt Q92794, residues 1-181)
Method: protein binding microarray
Form: double-stranded DNA, one strand shown
Medium: in vitro
Concentration: not given
Setting: 8-mer, flanks averaged, mean of 2 arrays, mostly near background
Relative to: not given
Reading: higher = stronger binding
Endpoint: E-score
Residues (chain): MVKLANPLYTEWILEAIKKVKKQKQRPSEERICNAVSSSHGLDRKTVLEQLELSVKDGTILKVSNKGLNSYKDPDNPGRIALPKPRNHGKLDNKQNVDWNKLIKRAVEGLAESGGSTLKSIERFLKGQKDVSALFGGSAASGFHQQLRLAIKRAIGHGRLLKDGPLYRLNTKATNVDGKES
Sequence = AGCGCCAA; result = 0.0958
Sequence = AGGTCACG; result = -0.00253
Sequence = CAGTTTGC; result = 0.0812
Sequence = CCAGAACC; result = -0.0645
Sequence = CGTTTTGA; result = 0.0346
Sequence = GCTGTTCC; result = 0.0383
Sequence = ATATATAC; result = 0.0631
Sequence = TCTCTTAA; result = -0.159

Study 2
Target: Sal-like protein 4, full length isoform B (SALL4, Homo sapiens, UniProt Q9UJQ4-2, residues 1-616)
Method: universal PBM
Form: double-stranded DNA, one strand shown
Medium: in vitro
Concentration: not given
Setting: 8-mer, flanks averaged, mean of replicates
Reading: higher = stronger binding
Endpoint: E-score
Construct (chain): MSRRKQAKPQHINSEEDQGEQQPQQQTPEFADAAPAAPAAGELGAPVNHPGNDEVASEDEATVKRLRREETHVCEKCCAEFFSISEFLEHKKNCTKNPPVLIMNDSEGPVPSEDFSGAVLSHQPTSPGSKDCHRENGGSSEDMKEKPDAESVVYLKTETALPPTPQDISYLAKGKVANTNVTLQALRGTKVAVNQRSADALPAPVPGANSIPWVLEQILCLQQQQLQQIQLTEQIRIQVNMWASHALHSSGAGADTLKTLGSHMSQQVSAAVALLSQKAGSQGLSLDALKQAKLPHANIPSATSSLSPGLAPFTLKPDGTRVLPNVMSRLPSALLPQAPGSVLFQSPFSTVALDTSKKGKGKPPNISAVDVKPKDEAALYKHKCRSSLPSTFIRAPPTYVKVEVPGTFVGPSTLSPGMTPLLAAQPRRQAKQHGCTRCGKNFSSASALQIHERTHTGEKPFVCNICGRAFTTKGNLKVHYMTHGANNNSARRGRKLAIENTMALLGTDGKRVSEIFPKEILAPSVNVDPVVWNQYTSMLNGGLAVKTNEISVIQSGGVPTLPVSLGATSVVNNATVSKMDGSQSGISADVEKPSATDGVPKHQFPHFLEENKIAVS
Sequence = AACTGGTA; result = -0.0842
Sequence = ATCTCTTG; result = -0.116
Sequence = ATGGAGCG; result = -0.0613
Sequence = AGACTATG; result = 0.0174
Sequence = GCCGAGTA; result = -0.278
Sequence = CCCCTGAA; result = -0.0706
Sequence = CCTCCGCA; result = -0.0412
Sequence = ATTTTAAA; result = 0.335
Sequence = TCATCAGA; result = 0.0629
Sequence = ATAGCAAC; result = 0.145
Sequence = ATAGACAA; result = 0.177

Study 3
Target: Prothrombin, mature alpha-thrombin (F2, Homo sapiens, UniProt P00734)
Method: aptamer microarray, sandwich
Form: DNA with 2'F-ANA
Medium: in vitro
Concentration: 200 nM
Setting: whole 15-mer aptamer, many near background
With: Cy3 exosite-II aptamer, 400 nM
Reading: higher = stronger binding
Endpoint: mean fluorescence intensity
Sequence: GGTTGGTGTGGTTGG
Modification = 2'F-ANA at 1 4 5 6 7 9 11 12 13 14; result = 53.2 a.u.
Modification = 2'F-ANA at 1 2 4 5 8 11 15; result = 52.7 a.u.
Modification = 2'F-ANA at 1 3 5 6 7 10 11 13; result = 60.5 a.u.
Modification = 2'F-ANA at 2 3 4 6 7 9 15; result = 480 a.u.
Modification = 2'F-ANA at 1 3 4 8 11 13 15; result = 152 a.u.
Modification = 2'F-ANA at 2 3 4 7 8 9 10 12 15; result = 364 a.u.
Modification = 2'F-ANA at 2 4 6 7 10 11 12 14; result = 58.8 a.u.
Modification = 2'F-ANA at 2 5 6 7 8 10 13 15; result = 45.9 a.u.
Modification = 2'F-ANA at 1 5 6 7 10 12 14 15; result = 57.5 a.u.
Modification = 2'F-ANA at 4 6 9 11 12 13 15; result = 252 a.u.
Modification = 2'F-ANA at 2 3 7 9 10 11 12 13 15; result = 364 a.u.
Modification = 2'F-ANA at 1 5 7 11 14 15; result = 70.2 a.u.

Other studies, line by line
Substance = PhoQ, residues 284 288 289 292 302 303 DDMDFR; target = PhoP, residues 12 14 15 18 19 STWGI (Escherichia coli, UniProt P23836); assay = Sort-seq, item: YFP reporter; test system = E. coli; conditions = PhoQ-PhoP variant library, with: 10 µM Mg2+; scale = relative to: high Mg2+ state, higher = stronger signaling; endpoint = fold induction; result = 0.845

Excerpt of the above (study 2):
Sequence = ATGGAGCG; result = -0.0613
Sequence = ATTTTAAA; result = 0.335
